Published values of several laboratories.
Each line is one published result; not all experiments were run side by side. ± marks the error that the study gave.
TNKS: Poly [ADP-ribose] polymerase tankyrase-1 (TNKS, Homo sapiens, UniProt O95271)
Genome polyprotein NS2B-NS3 protease: Genome polyprotein, NS2B-NS3 protease (dengue virus type 2, UniProt P29990)
CNR2: Cannabinoid receptor 2 (CNR2, Homo sapiens, UniProt P34972)

Structure (SMILES)	tested on	assay	test system	conditions	how to read	measurement	result
O=C(NO)c1cccc(OS(=O)(=O)Oc2ccccc2)c1	HDAC11 (Homo sapiens, UniProt Q96DB2)	–	–	10 µM	–	inhibition	29%
CC(=O)N[C@H](C(=O)N[C@@H](CO)C(=O)N[C@@H](Cc1ccccc1)C(=O)N[C@H]1CCCCNC(=N)NCCCCNC(=N)NCCCC[C@@H](C(=O)N[C@@H](CC(C)C)C(=O)N[C@@H](CC(C)C)C(=O)N[C@@H](CO)C(=O)N2CCC[C@H]2C(N)=O)NC(=O)[C@H](Cc2c[nH]c3ccccc23)NC(=O)[C@H](Cc2ccc(O)cc2)NC(=O)[C@H](CCC(=O)O)NC1=O)[C@@H](C)O	MDM2 (Homo sapiens, UniProt Q00987)	protein-protein interaction, inhibitor, TR-FRET	–	0.1 µM	–	inhibition	≥ 90%
O=C(N/N=C/c1cc[n+](CC2CC2)c2ccccc12)N/N=C/c1cc[n+](CC2CC2)c2ccccc12	telomeric G4 DNA hybrid-2	FRET melting	–	1 µM, DNA 0.2 µM, with: duplex DNA competitor 10 µM	–	ΔTm	4.4 ± 0.8 °C
O=C(CC1CC2CCC1C2)NCCNC(=O)Cn1c(=O)[nH]c(=O)c2ccccc21 (centres unmarked)	TNKS	enzyme activity, inhibitor	–	0.5 µM	–	inhibition	5%
CCN(CC)C(=O)n1ccnn1	Acylamino-acid-releasing enzyme (Apeh, Mus musculus, UniProt Q8R146)	serine hydrolase activity, inhibitor, competitive gel-based ABPP	mouse T-cell proteome	1 µM, 30 min, 37 °C	–	inhibition	< 50%
COc1ccc2nc(C)ccc2c1Nc1sn(C)c(=O)c1C#N	TNKS	enzyme activity, inhibitor	–	10 µM	–	inhibition	5%
CN(C)C/C=C/C(=O)Nc1ccc2nc(NCCCCCN(C)C)nc(NCCCCCCN(C)C)c2c1	KMT2A (Homo sapiens, UniProt Q03164)	enzyme activity, inhibitor, radiometric	–	50 µM	–	inhibition	52%
CCCCCCCCCCCCCCCC(=O)N[C@@H](CCCCN)C(=O)N[C@@H](CCCCN)C(=O)N[C@@H](CO)C(=O)N[C@@H](CCCNC(=N)N)C(=O)N[C@@H](C)C(=O)N[C@@H](CC(C)C)C(=O)N[C@@H](Cc1ccccc1)C(N)=O	F2RL3 (Homo sapiens, UniProt Q96RI0)	platelet aggregation, ex vivo LTA	human	0.5 mg/kg, 4 to 6 h, with: AYPGKF 160 µM	baseline: baseline	inhibition	34%
Brc1ccccc1-c1nnc(CSc2nnnn2-c2ccccc2)o1	GABAA receptor	binding	–	10 µM	–	inhibition	15%
C=C(NC(=O)c1csc(-c2nc3c(cc2O)-c2nc(cs2)C(=O)NC(C(C)O)C(=O)NC(=C(C)OC)c2nc(cs2)C(=O)NC2c4nc(cs4)C(=O)NC(COC(=O)c4c5c6c(cccc6n4O)COC(=O)C(OC4CC(C)(O)C(N(C)C)C(C)O4)C2OC5)c2nc-3cs2)n1)C(N)=O (centres unmarked)	–	–	ICR mice, Streptococcus pneumoniae ATCC 49169 infected, immunocompromised, blood	intravenous, 32 mg/kg once daily	–	AUC(0-t)	3.36 µM·h
C[Si](C)(C)C[C@H](CN)CC(=O)O	VIPR1 (Homo sapiens, UniProt P32241)	ligand displacement, radioligand	–	250 µM	–	inhibition	6%
N=C(N)NCCCC(NC(=O)C(CC(=O)NO)Cc1ccc2ccccc2c1)C(=O)NC(Cc1c[nH]c2ccccc12)C(=O)NC(CCC(=O)O)C(N)=O (centres unmarked)	Stromelysin-2 (Homo sapiens, UniProt P09238)	–	–	1 µM	–	inhibition	10%
Cc1ccc(-n2nc(C(=O)Nc3cccc(C(N)=O)c3)cc2-c2ccc(CC(C)C)cc2)cc1	Genome polyprotein NS2B-NS3 protease	enzyme activity, fluorogenic AMC substrate	–	50 µM	–	inhibition	98%
C=CC(=O)N1[C@@H](c2ccc3c(c2)OCO3)c2[nH]c3ccccc3c2C[C@H]1C(=O)NC1CC1	Heme oxygenase 2 (HMOX2, Homo sapiens, UniProt P30519)	cysteine IA-DTB labelling, covalent inhibitor, MS-ABPP	22Rv1	20 µM, in situ treatment	baseline: DMSO	inhibition	50%
Cc1nn(-c2cccc(N)c2)c(=O)c2cnc(Nc3ccc(N4CCNCC4)cc3)nc12	PDPK1 (Homo sapiens, UniProt O15530)	kinase activity, inhibitor, SelectScreen kinase profiling	–	–	–	IC50	> 10000 nM
CCn1cc(-c2cccc(C(F)(F)F)c2)c2sc(C(=N)NC3CCS(=O)(=O)CC3)cc2c1=O	PHIP, BD2 (Homo sapiens, UniProt Q8WWQ0)	–	–	1 µM	–	inhibition	1.8%
N=C(N)NCc1ccc(CNC(=O)c2cc(-c3ccccc3)n(-c3ccccc3)n2)cc1	Genome polyprotein NS2B-NS3 protease	enzyme activity, fluorogenic AMC substrate	–	50 µM	–	inhibition	60%
O=C(O)C(Cc1c[nH]cn1)N1C(=O)c2ccc3c4ccc5c6c(ccc(c7ccc(c2c37)C1=O)c64)C(=O)N(C(Cc1c[nH]cn1)C(=O)O)C5=O (centres unmarked)	hTERT promoter G-quadruplex DNA	binding, thiazole orange displacement	–	pH 8	–	DC50	> 2500 nM
C=CC(=O)Nc1cccc(-c2cnc3[nH]cc(C(=O)NC(C)(C)C)c3n2)c1	PRKCZ (Homo sapiens, UniProt Q05513)	enzyme activity, inhibitor	–	0.1 µM	–	inhibition	-9%
O=C1c2sc(-c3ccc(N4CCC(F)C4)nc3F)nc2CCN1c1cccnc1 (centres unmarked)	L-type Ca2+ channel, benzothiazepine (diltiazem) site	radioligand binding, BioPrint binding panel	–	1 µM, with: antagonist radioligand	–	inhibition	-26%
NC(=O)c1cccc(NC(=O)c2cc(O)n(-c3ccccc3)n2)c1	Genome polyprotein NS2B-NS3 protease	enzyme activity, fluorogenic AMC substrate	–	50 µM	–	inhibition	15%
Cc1ncsc1-c1ccc(C(C)NC(=O)C2CC(O)CN2C(=O)C(NC(=O)CCCCCCCCCCN2CCCC(Nc3ncc(Cl)c(Nc4ccccc4S(=O)(=O)C(C)C)n3)C2)C(C)(C)C)cc1 (centres unmarked)	22Rv1	RNA-seq, item: PALB2 mRNA	–	concentration not given	baseline: DMSO	log2 fold change	-2.09

Structure (SMILES)	tested on	assay	test system	conditions	how to read	measurement	result
COC1CN([C@H]2CC[C@H]([C@@]3(C)Oc4c(Cl)cc(C(=O)NCc5c(SC)cc(C)[nH]c5=O)c(C)c4O3)CC2)C1	–	RNA-seq, item: FZD3	human, whole blood	dose not given, 24 h	baseline: pretreatment baseline	log2 fold change	1.31
CC[n+]1cccc2cc(/C=N/NC(=O)N/N=C/c3ccc4c(ccc[n+]4CC)c3)ccc21	telomeric G4 DNA hybrid-2	FRET melting	–	1 µM, DNA 0.2 µM	–	ΔTm	8.7 ± 0.2 °C
Cc1cc(C(=O)NCCNC(=O)c2cccc(COc3ccccc3C(N)=O)c2)n[nH]1	TNKS	enzyme activity, inhibitor	–	5 nM	–	inhibition	85%
Cc1cc(C(=O)N[C@H](C(=O)Nc2cccc(C(N)=O)c2)c2ccc(OCc3ccccc3)cc2)n(Cc2ccccc2)n1	Genome polyprotein NS2B-NS3 protease	reporter gene	HeLa	12.5 µM	–	inhibition	83%
CC1Cc2ccccc2N1C(=O)CN1CCN(c2ccccc2)CC1 (centres unmarked)	DRD1 (Homo sapiens, UniProt P21728)	radioligand binding	–	concentration not given, with: [3H]SCH23390	–	inhibition	-1%
O=C(NCCCCc1ccccc1)n1c(=O)oc2cc(-c3ccc(F)cc3)ccc21	phospholipase C	enzyme activity	–	10 µM	–	inhibition	-19.7%
CC(=O)[O-].O.O.O.O.[Co+2].[O-]c1ccc(Br)cc1C=NCCN1CCOCC1	–	FRAP	–	120 µM	–	ferric reducing power	26.4%
OCC1OC(n2cnc3c(NCc4ccc(Br)s4)ncnc32)C(O)C1O (centres unmarked)	ADORA2A (Homo sapiens, UniProt P29274)	ligand displacement, radioligand	–	10 µM	–	inhibition	71%
Cc1cc(C(=O)Nc2cccc(C(N)=O)c2)n(Cc2ccccc2)n1	Genome polyprotein NS2B-NS3 protease	reporter gene	HeLa	12.5 µM	–	inhibition	36%
COc1ccc(C(=O)Nc2c(-c3cccs3)nc3ccccn23)cc1	ADRA1D (Homo sapiens, UniProt P25100)	ligand displacement, radioligand	–	10 µM	–	inhibition	< 50%
C=CC(=O)Nc1cccc(Cn2ncc3cnc(Nc4cnn(CCOC)c4)nc32)c1	human FAK	KINOMEscan	–	100 nM	baseline: control	binding	100%
N=C(N)NCc1cccc(CNC(=O)c2cc(-c3ccccc3)n(-c3ccccc3)n2)c1	Genome polyprotein NS2B-NS3 protease	enzyme activity, fluorogenic AMC substrate	–	50 µM	–	inhibition	36%
O=C1c2sc(-c3ccc(N4CCC(CO)CC4)nc3F)nc2CCN1c1cccnc1	CNR2	ligand displacement, radioligand	–	1 µM	–	inhibition	-13%
CCOC(=O)[C@](CC)(CCCSCCOCCOCCNC(=O)OC(C)(C)C)NC(=O)c1ccc(C2CC2)c(Cc2ccc(F)cc2)n1	CNR2	ligand displacement, radioligand	–	cell membranes	–	Ki	28 nM
CC(=O)N[C@H](C(=O)N[C@@H](CCC(=O)O)C(=O)N[C@@H](CO)C(=O)N[C@@H](CC(=O)O)C(=O)COC(=O)c1c(C)cccc1C)[C@@H](C)O	Caspase-7 (CASP7, Homo sapiens, UniProt P55210)	enzyme activity, inhibitor	–	–	–	kinact/KI	24500 M⁻¹ s⁻¹
N#C/C(=C\c1ccc(-c2cc(Cl)ccc2Cl)o1)C(=O)Nc1cccc2ncccc12	SIRT5 (Homo sapiens, UniProt Q9NXA8)	enzyme activity, inhibitor	–	100 µM	–	inhibition	15%
NC(=O)c1ccccc1NC(=O)c1cc(-c2ccccc2)n(-c2ccccc2)n1	Genome polyprotein NS2B-NS3 protease	reporter gene	HeLa	12.5 µM	–	inhibition	36%
C/C=C/C(=O)Nc1ccc2nc(NCCCCCN(C)C)nc(NCCCCCCN(C)C)c2c1	BCDIN3D (Homo sapiens, UniProt Q7Z5W3)	enzyme activity, inhibitor, radiometric	–	50 µM	–	inhibition	71%
C[Si]1(C[C@H](CN)CC(=O)O)CCCC1	CNR2	ligand displacement, radioligand	–	70 µM	–	inhibition	-10%
C=CC(=O)N1Cc2nc(-c3cc(-c4cc(Cl)cnc4Cl)c(F)cc3F)n(-c3ccncn3)c2C1	RIPK3 (Homo sapiens, UniProt Q9Y572)	cell-free assay, inhibitor	–	1 µM	–	inhibition	2.2%
N=C(N)NCc1cccc(NC(=O)c2cc(-c3ccccc3)n(-c3ccccc3)n2)c1	Genome polyprotein NS2B-NS3 protease	reporter gene	HeLa	12.5 µM	–	inhibition	34%
CN(Cc1ccc(/C=C/C(=O)NO)cc1)CC12CC3CC(CC(C3)C1)C2	human ETB receptor	agonist radioligand binding	–	0.05 µM	–	inhibition	-5%
